Measurements gathered from unrelated publications.
Numbered parts are unrelated; each lists some results of a single study. Positions count from the first letter of the parent shown.

Block 1 — method: aptamer microarray, sandwich; molecule type: DNA with 2'F-ANA; sample: in vitro; concentration: 200 nM; with: Cy3 exosite-II aptamer, 400 nM; reading: higher = stronger binding; sequence: GGTTGGTGTGGTTGG
Target: Prothrombin, mature alpha-thrombin (F2, Homo sapiens, UniProt P00734)
Setting: whole 15-mer aptamer, many near background
| Modification | mean fluorescence intensity |
| --- | --- |
| 2'F-ANA at 1 4 6 7 9 10 12 13 15 | 233 a.u. |
| 2'F-ANA at 1 2 3 4 8 9 13 | 204 a.u. |
| 2'F-ANA at 1 2 3 5 6 8 13 14 15 | 74 a.u. |
| 2'F-ANA at 2 5 6 8 9 11 12 13 14 | 49.4 a.u. |
| 2'F-ANA at 5 6 7 10 12 13 14 | 46.6 a.u. |
| 2'F-ANA at 1 4 5 6 7 10 11 15 | 43.4 a.u. |
| 2'F-ANA at 3 4 5 6 10 11 | 50.7 a.u. |
| 2'F-ANA at 1 2 4 6 7 9 11 12 | 174 a.u. |
| 2'F-ANA at 4 5 8 10 14 15 | 44.4 a.u. |
| 2'F-ANA at 4 7 8 9 11 12 13 | 401 a.u. |
| 2'F-ANA at 1 3 5 6 8 9 13 14 | 52.9 a.u. |
| 2'F-ANA at 4 7 8 12 13 14 15 | 147 a.u. |
| 2'F-ANA at 2 3 4 7 9 10 14 | 182 a.u. |
| 2'F-ANA at 1 5 9 11 13 | 48.3 a.u. |
| 2'F-ANA at 3 4 5 6 7 8 9 10 11 12 13 15 | 55.9 a.u. |
| 2'F-ANA at 1 9 10 13 15 | 53.7 a.u. |
| 2'F-ANA at 2 3 4 9 14 | 251 a.u. |
| 2'F-ANA at 1 5 7 9 10 | 46.6 a.u. |
| 2'F-ANA at 2 4 5 8 9 10 12 14 | 62.4 a.u. |
| 2'F-ANA at 2 3 5 6 7 12 13 | 132 a.u. |

Block 2 — target: CCNB3, cyclin fold, Cln2 fusion (human); method: yeast growth competition, sequencing; sample: yeast; setting: weak parent motif; baseline: not given; reading: higher = stronger binding
Starting sequence: ORC1 docking peptide (human); PRARKRLELGNLG
| Change | normalised enrichment score |
| --- | --- |
| P1W | 0.551 |
| R4Y | 0.294 |
| A3T | 0.23 |
| N11K | 0.0243 |
| K5V | 0.00166 |
| R2Q | 0.117 |
| G10T | -0.118 |
| E8M | 0.025 |
| P1K | 0.595 |
| R6W | 0.191 |
| L12G | -0.0883 |
| E8W | 0.276 |
| L9R | 0.35 |
| R4N | 0.137 |
| A3W | 0.142 |
| R2C | -0.00855 |
| E8N | 0.137 |
| R4H | 0.571 |
| R6E | 0.208 |
| L9N | -0.101 |
| R4M | 0.13 |
| L9W | 0.0595 |
| E8Y | 0.0818 |
| L9I | 0.253 |
| K5T | -0.0214 |

Block 3 — target: CREB3L4, bZIP domain (human); method: DHFR protein complementation; sample: yeast; baseline: wild-type JUN-FOS pair; reading: higher = stronger binding
Setting: single substitutions, most at no-binding floor
Starting sequence: JUN, bZIP domain (human); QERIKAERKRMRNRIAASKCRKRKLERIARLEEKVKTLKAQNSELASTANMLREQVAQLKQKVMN; partner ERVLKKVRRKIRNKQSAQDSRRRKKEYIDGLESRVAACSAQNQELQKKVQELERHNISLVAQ
| Change | binding fitness [natural log] |
| --- | --- |
| L45G | -1.52 |
| A57P | -1.53 |
| I28K | -1.55 |
| K34S | -1.38 |
| A49R | -1.52 |
| E44I | -1.55 |
| A29N | -1.41 |
| N42K | -1.4 |
| V35L | -1.4 |
| T48W | -1.34 |
| A46H | -1.48 |
| S43W | -1.51 |
| L31E | -1.42 |
| K34P | -1.49 |
| E33H | -1.45 |
| S47W | -1.33 |
| L52D | -1.58 |
| N42M | -1.51 |
| M51R | -1.35 |
| R30Q | -1.14 |
| V56L | -1.53 |
| E44N | -1.47 |
| R30T | -1.11 |

Block 4 — method: competition protein-binding microarray; molecule type: double-stranded DNA, one strand shown; sample: in vitro; concentration: 2 µM; with: Cbf1 competitor, 0.05 µM; reading: higher = stronger binding; constant ends, left off below: … GTCTTGATTCGCTTGACGCTGCTG
Target: Phosphate system positive regulatory protein PHO4, full length, GST-tagged (PHO4, Saccharomyces cerevisiae, UniProt P07270, residues 1-312)
Setting: whole 60-bp probe, lowest competitor level
Construct (chain): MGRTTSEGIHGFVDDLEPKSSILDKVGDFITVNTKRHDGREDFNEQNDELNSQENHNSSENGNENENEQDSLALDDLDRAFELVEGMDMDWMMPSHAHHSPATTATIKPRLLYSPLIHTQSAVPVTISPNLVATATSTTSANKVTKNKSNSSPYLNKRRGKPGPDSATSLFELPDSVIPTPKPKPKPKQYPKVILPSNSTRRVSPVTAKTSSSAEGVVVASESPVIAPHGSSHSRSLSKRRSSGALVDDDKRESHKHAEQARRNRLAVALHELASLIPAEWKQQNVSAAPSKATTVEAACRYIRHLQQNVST
| Sequence | fluorescence intensity |
| --- | --- |
| CAGTGAGATTACGCAGCCGTGCGATTCAGGGACAGA | 4260 a.u. |
| GCACTAGTAGAATCGCACGTGTTGGGTTCCCCAAGT | 18100 a.u. |
| CCCAGAGATATACCACACATGAGACTGAAAAAAGCA | 6540 a.u. |
| AGTTGATTTTTTTTTCTCGTGGTGAGAGATAAATAA | 6840 a.u. |
| CATCCCATTGCAAGACCCACGTGAAGGAGCGTCTTC | 16300 a.u. |
| CATACCCAACCTTGTCTTGTGGGTGAAGATATTTGT | 4660 a.u. |
| TATGCGCGGATGTGGCACATGCTGTTGAGATCTCAA | 11600 a.u. |
| GAGTTTTTGCATTTGCACGTGAATTAGTTCTTGGCC | 12800 a.u. |
| CTTTCCCGATCTTATCACGTGTTTTTAGCACATTTG | 15000 a.u. |
| TCCTTTTTTGCGAGTCACGTTCCTGCAGCGCGTTTC | 12400 a.u. |
| GATGGGTAACCTGTTTCCGTGACGGAAACATTAGAA | 3190 a.u. |
| AGTCTCTTTTAGTTCACCGTGACGGTACGCACTGAT | 5300 a.u. |
| CTGTAAGATAAGGGACATGTGGCCTGGGAACTCCTG | 10000 a.u. |
| TTAGTAATCTAGAATCACATGGTACCTCTTTCTTCG | 8660 a.u. |
| GTCTTGTCTCATTGCTCAGTGGGTGTCCCCACTTCA | 4150 a.u. |
| CCGGCGCTGCTAAATCATGTGAGTTTAGCGCGTACC | 4990 a.u. |
| TGTTCCATTCAATGAAACATGTCAATTCTCTGAGTG | 5360 a.u. |
| CTTGCAAACCCTTCACACGTGGACCATGACGAATTT | 17900 a.u. |
| AAAGCGGTAATTTGTCACGGTACTTCACATATCTAT | 4440 a.u. |

Block 5 — method: DHFR PCA, deep sequencing; sample: yeast; with: (+)-ABA 200 µM; baseline: wild-type fitted maximum; reading: higher = stronger binding
Target: ABI1, truncated, D143A, DHFR fusion (Arabidopsis thaliana)
Setting: methotrexate growth selection, single substitutions
Starting sequence: PYL1, truncated, DHFR fusion (Arabidopsis thaliana); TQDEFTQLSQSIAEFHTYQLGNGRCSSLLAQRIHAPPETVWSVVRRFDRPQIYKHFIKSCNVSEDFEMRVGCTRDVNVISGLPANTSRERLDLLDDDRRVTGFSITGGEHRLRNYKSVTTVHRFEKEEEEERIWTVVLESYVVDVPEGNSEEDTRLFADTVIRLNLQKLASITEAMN
| Change | relative binding score [%] |
| --- | --- |
| V118I | 99.7 |
| H110K | 13 |
| D92K | -7.75 |
| D3S | 96.7 |
| H34R | 87.1 |
| P146E | 20.5 |
| N114M | 40.4 |
| S150V | 78.4 |
| Q51A | 74.2 |
| K54M | 12.9 |
| I57N | -0.283 |
| A84I | 19.5 |

Block 6 — method: RNA Bind-n-Seq; molecule type: RNA; sample: in vitro; concentration: 365 nM; baseline: no-protein control; reading: higher = stronger binding
Target: RNA binding protein fox-1 homolog 2, RRM domain, GST-SBP tag (RBFOX2, Homo sapiens, UniProt O43251-10, residues 100-194)
Setting: natural RNA segment, single round, ends assumed
Constant ends, left off below: GGGAGUUCUACAGUCCGACGAUC … UGGAAUUCUCGGGUGCCAA
Residues (chain): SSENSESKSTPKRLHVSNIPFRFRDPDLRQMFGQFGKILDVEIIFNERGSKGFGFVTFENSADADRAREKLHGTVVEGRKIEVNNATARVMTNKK
| Sequence | RBNS enrichment (R) |
| --- | --- |
| ACCCCUUGCAAGCCCACGGGGCUUCCUGGGUGGGAGGAAGAGGGUUCAGGCACUUCCCACCACCUUUGUGCCCCCUCUGGUUGUACUUUCCAGGUCCCUGCUUCUCACCU | 0.27 |
| GUUUACCCGGAGAAUUUUUUUCUCCCCAUUUGUUUUGUUUUUACUCAAUGACACCAUUUUUAGUUUUAUUUCCUGAUAGCAAAAGGAAAAAAAACACCCAUCCCUCAAAA | 1.26 |
| CAUCUGCCCAGCACGGCCUGCACUGUGCCCACCCACUUGCUCCACAACGUCCAGUUGGUCCUGCUGCCAAGAGCCCCGUGCAUCCAGGCGGCCAAGCACAAACUGGGGGA | 1.2 |
| CUAUAAAAAUGAACCUAAUGGGUGGAUUGAAUAUACAUUGAGCCCAAAGUCAAGUUUGGGGAAAAGGCAGACUAAGGCCUCCUUUCUCUGACCUCCCAGGAAGAAAAUAG | 0.488 |
| CUGUUUAUGCUCUCCCUGCCCCCAGGGAAACUGUUUAUUCUUUCAAAAGAAGCAAACAGCGUUCAUUUCUGCUCCUGUAAUGGAGAAACAGCCAGCUCCCCUGCAUCCCU | 0.989 |
| UUUGAGAUUGGAAUUAUUAGACAAAUCUUCCAAAGAUGCACUUUAGGAAGUUGCUAUUGGCCACAUAACUAGGCUUCCAUGUUGUACAGCAGUGAGUGGUUCCAUAUGGC | 0.411 |
| UGCCCAGAGGUAGAGUUAGUGUUUAGGUGGAAAGGGAGAUGACAGCUUUCCAAAGAAGGACCUAAAACACACCAAGAUUGUCUUCUACAGGAAUUGCUGGGCAGGUCUCC | 1.8 |
| GACUGGAUAGACAUCUUGACUCUAUUCAGCCCGUAGUCUGUGAUCUGGAGAGUCCAGUUAAGGUAACCCAGAUUUUUGACAACCGCCUUCCUGCUGAGCCAAAGUUUUCU | 0.215 |
| UCUUGGAGAAAACCAACCAUAAACUUACAGCUCUAAAAUUCAGAAAGCCCUAAAAUUUCAAACACUGUUUGAAAGAAGAGGUGGGGGCCGGGUGCCGUGGCUCAUGCCUG | 0.769 |
| UUCAGAGCAUGGUUAGAAGAGGAAAGGGGAGUCUCAAAGCUGGAGAGUUUACCAACAAAUAUUGACUGCAGUGAUUAACCAAGACAUUUUUGUUAACUAAAAAGUGAAAU | 27.4 |
| UCUCCUAAGUACUUAUUCAUGCCUCUGAUGUGCCUUGUAUCUGAAUCCAGGAUGGCAGAGAUCCCCUGUCCCUGGAAGGUGUCAUAUAUUACUAGCUAGUAUUAGGUUGA | 0.547 |
| UUUUUAAAAGAAUGUCUGCCCUCACACACUUUUAUGGAUUUGUUUUUCUUACAUACCCAUCUUUUAACUUAGAGAUAGCAUUUUUUGCCCUCUUUAUUUUGUUGUUUGUU | 0.398 |

Single results of other studies
| Molecule | target | test | test system | conditions | how to read | measurement | result |
| --- | --- | --- | --- | --- | --- | --- | --- |
| PhoQ, residues 284 288 289 292 302 303 TASMAF | PhoP, residues 12 14 15 18 19 VHSCL (Escherichia coli, UniProt P23836) | Sort-seq, refers to: YFP reporter | E. coli | PhoQ-PhoP variant library, with: 10 µM Mg2+ | baseline: high Mg2+ state, higher = stronger signaling | fold induction | 15.6 |
